Measurements of several laboratories.
Numbered parts are unrelated; each lists some results of a single study. Positions count from the first letter of the parent shown.
Sequence of UniProt Q9HBH9 (whole entry, looked up): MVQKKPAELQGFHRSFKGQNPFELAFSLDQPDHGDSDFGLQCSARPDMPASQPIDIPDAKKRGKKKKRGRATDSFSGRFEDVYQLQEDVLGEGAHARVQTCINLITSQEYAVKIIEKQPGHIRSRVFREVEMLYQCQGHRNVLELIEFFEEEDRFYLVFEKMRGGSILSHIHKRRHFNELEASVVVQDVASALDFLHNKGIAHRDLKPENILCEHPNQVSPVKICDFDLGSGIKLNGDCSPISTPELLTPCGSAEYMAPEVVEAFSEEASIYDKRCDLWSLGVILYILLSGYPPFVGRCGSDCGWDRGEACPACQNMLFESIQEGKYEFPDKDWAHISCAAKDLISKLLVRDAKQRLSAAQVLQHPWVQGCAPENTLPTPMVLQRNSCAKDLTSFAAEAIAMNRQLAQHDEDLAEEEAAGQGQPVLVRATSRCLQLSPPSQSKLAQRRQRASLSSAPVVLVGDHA

Sample 1
Target: CREB5, bZIP domain (human)
Technique: DHFR protein complementation
Matrix: yeast
Setting: single substitutions, most at no-binding floor
Reference: wild-type JUN-FOS pair
Reading: higher = stronger binding
Parent: JUN, bZIP domain (human); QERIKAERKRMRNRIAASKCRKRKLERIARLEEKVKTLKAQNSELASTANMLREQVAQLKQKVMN; partner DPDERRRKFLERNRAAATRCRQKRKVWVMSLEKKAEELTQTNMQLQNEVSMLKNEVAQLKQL
With `E33D` the binding fitness was -0.295 natural log.
The binding fitness of `R53M` is reported as -1.1 natural log.
With `K39T` the binding fitness was -0.146 natural log.
`E33T` gave a binding fitness of -0.532 natural log.
`E54I` gave a binding fitness of -0.473 natural log.
For `L52K`, the binding fitness was -1.36 natural log.
With `R30K` the binding fitness was -0.344 natural log.
With `T48L` the binding fitness was -0.252 natural log.

Sample 2
Target: Prothrombin, mature alpha-thrombin (F2, Homo sapiens, UniProt P00734)
Technique: aptamer microarray, sandwich
Form: DNA with 2'F-ANA
Matrix: in vitro
Tested at: 200 nM
Setting: whole 15-mer aptamer, many near background
Together with: Cy3 exosite-II aptamer, 400 nM
Reading: higher = stronger binding
Strand: GGTTGGTGTGGTTGG
`2'F-ANA at 1 3 5 6 7 10 12 13 15` — result for “mean fluorescence intensity”: 49.3 a.u.
Under “mean fluorescence intensity”, `2'F-ANA at 1 2 5 6 10 11 13 14` is recorded as 51 a.u.
For `2'F-ANA at 1 4 7 8 10 13 14 15`, “mean fluorescence intensity” read 97.5 a.u.
For `2'F-ANA at 1 4 5 10 15`, “mean fluorescence intensity” read 45.4 a.u.
`2'F-ANA at 1 2 4 5 7 9 13` — result for “mean fluorescence intensity”: 47.4 a.u.
`2'F-ANA at 1 2 3 5 7 8 9` — result for “mean fluorescence intensity”: 81.6 a.u.
For `2'F-ANA at 3 4 5 7 8 10 13 15`, “mean fluorescence intensity” read 50.1 a.u.
For `2'F-ANA at 1 3 4 5 11 12 13`, “mean fluorescence intensity” read 156 a.u.

Single results of other studies
CCT7: CCT7 (Homo sapiens, UniProt Q99832)
Under interaction screen, `P4HB (Homo sapiens, UniProt P07237)` is recorded as “cross-linked” (P4HA1 (Homo sapiens, UniProt P13674); cross-linking MS; hits only).
`N#CC(c1ccnc(NCCc2cccnc2)n1)c1nc2ccccc2s1` (stereo not drawn) gave a remaining activity of 51% (MAP kinase-interacting serine/threonine-protein kinase 2 (MKNK2, Homo sapiens, UniProt Q9HBH9); enzyme activity, inhibitor; 0.5 µM; reference: control).
`MYL6 (Homo sapiens, UniProt P60660)`: interaction screen “cross-linked” (MYO18A (Homo sapiens, UniProt Q92614); cross-linking MS; hits only).
`CCT4 (Homo sapiens, UniProt P50991)` — result for interaction screen: “cross-linked” (CCT7; cross-linking MS; hits only).
For `CCT2 (Homo sapiens, UniProt P78371)`, interaction screen read “cross-linked” (CCT7; cross-linking MS; hits only).

Repeated from above (sample 2):
`2'F-ANA at 1 2 3 5 7 8 9` — result for “mean fluorescence intensity”: 81.6 a.u.
